Results from different studies.
A part holds a random share of what one study measured. Positions count from the first letter of the parent shown.

Set 1 — target: CCND3, cyclin fold, Cln2 fusion (human); method: yeast growth competition, sequencing; matrix: yeast; notes: weak parent motif; relative to: not given; reading: higher = stronger binding
Starting sequence: BRCA2 docking peptide (human); PSIKRNLLNEFDR
| Variant | normalised enrichment score |
| --- | --- |
| R5G | 0.0728 |
| S2H | 0.0439 |
| S2I | 0.049 |
| P1R | 0.21 |
| P1H | 0.152 |
| D12G | 0.2 |
| L7I | 0.281 |
| E10V | 0.11 |
| N6I | 0.106 |
| F11G | 0.193 |
| S2A | 0.128 |
| D12Q | 0.143 |
| P1V | 0.143 |
| N9F | -0.0178 |
| L8N | 0.0376 |

Set 2 — method: RNA Bind-n-Seq; form: RNA; matrix: in vitro; concentration: 200 nM; notes: whole 134-nt RNA, ends assumed; added: 150 mM KCl; relative to: input library; reading: higher = stronger binding
Target: Ras GTPase-activating protein-binding protein 1, full length (G3BP1, Homo sapiens, UniProt Q13283)
Sequence of UniProt Q13283 (whole entry, looked up): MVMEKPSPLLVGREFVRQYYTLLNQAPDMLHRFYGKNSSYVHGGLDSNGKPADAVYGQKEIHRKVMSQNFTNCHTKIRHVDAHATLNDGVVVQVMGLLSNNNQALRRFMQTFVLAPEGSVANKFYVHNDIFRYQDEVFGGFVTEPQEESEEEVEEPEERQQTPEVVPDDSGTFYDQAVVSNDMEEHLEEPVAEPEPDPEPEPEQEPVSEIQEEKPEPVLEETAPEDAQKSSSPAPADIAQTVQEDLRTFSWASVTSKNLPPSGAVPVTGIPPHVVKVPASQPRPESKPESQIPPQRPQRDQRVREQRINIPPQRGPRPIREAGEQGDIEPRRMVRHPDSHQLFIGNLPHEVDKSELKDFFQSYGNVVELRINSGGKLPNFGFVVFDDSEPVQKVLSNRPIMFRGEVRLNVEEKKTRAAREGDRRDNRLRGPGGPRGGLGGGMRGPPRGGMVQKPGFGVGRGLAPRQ
All sequences stand within: GGGAGUUCUACAGUCCGACGAUC … UGGAAUUCUCGGGUGUCAAGG
| Strand | log2 enrichment |
| --- | --- |
| UCAGGUCCUUAAGUACCUUCGUAUUACUUUUAGCAGGAAAAACGGCAUGUUUUGCAUCUGGUGUGCAAUGUGAAGAGUCCUUCAAAAAUG | 0.00484 |
| GUCCUGUGCUACACAUCGUAUGUACCGAAUCGGGAGGGAAAAAAAGGGUUUUUUUGGGAAAGUAUUAUGUUACGCCGUUCGGAUCUGCAC | -0.44 |
| AAGUCCUGUGCUACACAUCGUAUGUACCGAAUCGGGUUUUUGGGUGGGAAAAAGGGAAAGUAUUAUGUUACGCCGUUCGGAUCUGCACUU | 0.0881 |
| CACAGACAACACGCACCCACACAGACACAGAGGGAAGGGGUUGGGAUGGGGACAGGGUGCACAGCAGGGCGGGGUAGGACCCCAGCCCCU | 1.85 |
| UCCUGUGCUACACAUCGUAUGUACCGAAUCGGGAAAAAAAGGGUUUGGGAAAAAAAGGGAAAGUAUUAUGUUACGCCGUUCGGAUCUGCA | -0.569 |
| CCUGUGCUACACAUCGUAUGUACCGAAUCGGGGAAAAAAAGGAAAAAAAGGGAAAAAAAGGAAAGUAUUAUGUUACGCCGUUCGGAUCUG | -0.564 |
| AAGUCCUGUGCUACACAUCGUAUGUACCGAAUCGGGAGGGAAAGGGAAAAAAAGGGAAAGUAUUAUGUUACGCCGUUCGGAUCUGCACUU | -0.0639 |
| UGCGUGCUUGUGUCCUGGAGCUGGAAGAGCGGCUGAGCACGCAGGAGGGCUUGGUGCAAGAGCUUCAGAAAAAACAGGUGGAAUUGCAGG | -0.676 |
| GCAGGAAGUAAAAACAAAUGGAAAUGCUUCGGAUAGUGGCAGGGGUGGGGGUUGCUAAGGAAAGGGUGGGGUGGGAGUGGGUAAAGAGUU | 0.395 |
| GUCCUGUGCUACACAUCGUAUGUACCGAAUCGGGAAAAAGGGGAAAAAGGGGAAAAAGGAAAGUAUUAUGUUACGCCGUUCGGAUCUGCA | -0.32 |
| GCAGGAAGUAAAAACAAAUGGAAAUGCUUCGGAUAGUGGCAGGGGUGGGGGUUGCUAAGGAAAGGGUGGCAUGGGAGUGGGUAAAGAGUU | 0.815 |
| UGAAAAUGCUUUCAUGUUAAUUGUGUACACACAUUUCAUCUGUAUCCCUGUUUCUUUUCUCCCUACAGAAACAUAUGAGGAUUUUGAUAC | 0.0226 |
| UAACUUUAGAGGAGGAUCUGAUGGAUAUGGCAGUGGACGUGGAUGUGGGGAUGGCUAUAAUGGGUAUGGAGGAGGACCUGGAGGUGGCAA | 0.509 |
| CUCAAGUCCUGUGCUACACAUCGUAUGUACCGAAUCGGGAAAGGGUGGGAGGGAAAGUAUUAUGUUACGCCGUUCGGAUCUGCACUUCCA | 1.28 |

Set 3 — method: protein-binding microarray; form: double-stranded DNA, one strand shown; matrix: in vitro; concentration: 2200 nM top; notes: 60-bp whole probe; added: salmon DNA 0.4 mg/ml; relative to: random background probes; reading: higher = stronger binding; all sequences stand within: GCCTAGCAC … GTCTTGATTCGCTTGACGCTGCTG
Target: Interferon regulatory factor 7, full length, phosphomimetic (IRF7, Homo sapiens, UniProt Q92985, residues 1-503, S471D/S472D/S475D/S476D/S477D/S483D/S484D/S487D)
Target sequence (chain): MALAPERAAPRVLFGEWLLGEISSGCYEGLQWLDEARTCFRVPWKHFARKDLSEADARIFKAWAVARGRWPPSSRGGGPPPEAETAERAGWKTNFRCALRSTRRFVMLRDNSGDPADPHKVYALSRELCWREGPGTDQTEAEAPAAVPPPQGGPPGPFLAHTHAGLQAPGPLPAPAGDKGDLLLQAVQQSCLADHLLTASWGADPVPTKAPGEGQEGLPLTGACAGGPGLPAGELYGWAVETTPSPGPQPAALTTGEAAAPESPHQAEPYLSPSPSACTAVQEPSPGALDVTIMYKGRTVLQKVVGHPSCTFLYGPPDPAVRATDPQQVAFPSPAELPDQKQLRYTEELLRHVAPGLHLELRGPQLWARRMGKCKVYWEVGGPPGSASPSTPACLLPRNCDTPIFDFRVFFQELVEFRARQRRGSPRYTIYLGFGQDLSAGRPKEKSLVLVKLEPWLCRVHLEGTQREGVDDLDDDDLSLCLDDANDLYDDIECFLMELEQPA
| Strand | fitted relative affinity |
| --- | --- |
| TGGTCTTTCCACTTTCTTTTGTGCTAG | 3.37 z-score |
| TTAGTTTTCAATTTTTGCATGTGCTAG | 1.92 z-score |
| TTAGATATCCGGACTGGATTAGTGCTA | -0.306 z-score |
| GACGAACTGAGTCCCGAGACGTGCTAG | 0.235 z-score |
| CTTTTTTTCCGAGTGAGTAAGTGCTAG | 1.87 z-score |
| TCCCCTTCTACTCTCCTGCAGTGCTAG | 2.11 z-score |
| TTAGGTCTTGGACTGGGTTAGTGCTAG | -0.331 z-score |
| GAAGATCTCAGTATCGAGACGTGCTAG | -0.267 z-score |
| TTAGGTTTCCGTCTCCTTTAGTGCTAG | 2.78 z-score |
| TTAGAACTGAGTTTCGATTTGTGCTAG | 8.75 z-score |
| GTAGATATCGGGACTGGATTAGTGCTA | -0.265 z-score |
| GACGATTTCAGACTGGTGACGTGCTAG | 0.508 z-score |
| GAAGATCTCAGTCTCGAGACGTGCTAG | -0.149 z-score |
| ATAGATATCAGTCTCGATTAGTGCTAG | 0.41 z-score |
| GACGATATCAGTTTCTAGACGTGCTAG | 1.52 z-score |
| TCACCTTGCTTTATGTGACTGTGCTAG | 1.87 z-score |
| TTAAGTATCCTTCTCCTTTAGTGCTAG | 1.3 z-score |
| GACGATATCGGGTATCGAGTCGTGCTA | 0.528 z-score |
| TGTTTTTGCTTTCTTTATGCGTGCTAG | 4.9 z-score |
| TTAGATATCGGGTAACGATTAGTGCTA | -0.553 z-score |
| TTAGAACTGGAGACTGGATTAGTGCTA | -0.9 z-score |
| GACGGTTCCGACACTGGGGACGTGCTA | -0.245 z-score |
| TTAGGTATCCAACTGCTTTAGTGCTAG | 0.415 z-score |
| GACGGTATCCGGTATCGGGACGTGCTA | -0.152 z-score |
| TTAGGACTGGGCCTCGGTTAGTGCTAG | -0.641 z-score |

Set 4 — target: CREM, bZIP domain (human); method: DHFR protein complementation; matrix: yeast; relative to: wild-type JUN-FOS pair; reading: higher = stronger binding
Notes: single substitutions, most at no-binding floor
Starting sequence: JUN, bZIP domain (human); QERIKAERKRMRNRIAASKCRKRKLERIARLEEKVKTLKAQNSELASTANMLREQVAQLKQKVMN; partner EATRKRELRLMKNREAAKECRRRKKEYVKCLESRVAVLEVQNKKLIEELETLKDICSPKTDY
| Variant | binding fitness [natural log] |
| --- | --- |
| E32S | -1.56 |
| L31V | -1.6 |
| E32Q | -1.43 |
| A49G | -1.58 |
| R30W | -1.51 |
| A29E | -1.47 |
| Q41I | -1.4 |
| Q41K | -1.46 |
| A57G | -1.43 |
| T48V | -1.53 |
| A46T | -1.39 |
| E44P | -1.48 |

Set 5 — method: DHFR PCA, deep sequencing; matrix: yeast; added: (+)-ABA 1.4 µM; relative to: wild-type fitted maximum; reading: higher = stronger binding
Target: ABI1, truncated, D143A, DHFR fusion (Arabidopsis thaliana)
Notes: methotrexate growth selection, single substitutions
Starting sequence: PYL1, truncated, DHFR fusion (Arabidopsis thaliana); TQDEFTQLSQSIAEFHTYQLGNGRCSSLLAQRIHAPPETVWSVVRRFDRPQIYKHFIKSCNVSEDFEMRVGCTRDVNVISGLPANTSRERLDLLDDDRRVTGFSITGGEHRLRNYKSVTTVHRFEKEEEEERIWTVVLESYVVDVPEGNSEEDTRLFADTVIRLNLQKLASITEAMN
| Variant | relative binding score |
| --- | --- |
| S26M | 9.42% |
| N149R | 11.9% |
| L93P | 6.89% |
| N149L | 13.9% |
| F157I | 0.565% |
| V100I | 55.8% |
| T135E | 3.36% |
| I105H | -11.1% |
| D75Q | 69% |
| R99F | 87% |
| G23R | 40.1% |
| E151L | 33.6% |
| D3R | 41.4% |
| T160F | 62.6% |
| R45C | -0.327% |
| I105A | 2.59% |

Repeated from above (set 5):
| Variant | relative binding score |
| --- | --- |
| L93P | 6.89% |
| N149L | 13.9% |
| F157I | 0.565% |
| V100I | 55.8% |
| T135E | 3.36% |
| I105H | -11.1% |
| D75Q | 69% |
| R99F | 87% |
| G23R | 40.1% |
| E151L | 33.6% |
| D3R | 41.4% |
| T160F | 62.6% |
| R45C | -0.327% |
| I105A | 2.59% |
